Results pooled from the literature.
Compare with care: the assays were run in different laboratories. Several values in a cell are separate wells, animals, samples, runs or records. ± marks the error that the study gave.

Cc1ccc(Sc2ccccc2N2CCNCC2)c(C)c1
participants with TEAE (item: Dizziness; healthy adult men; oral, 20 mg daily, 12 days): 0%

C=CC(=O)Nc1cc(Nc2nccc(-c3c[nH]c4ccccc34)n2)c(OC)cc1N(C)CCN(C)C
Tmax at steady state (human, plasma; cycle 3 day 1, osimertinib alone, randomized arm): 4 h

C[C@H]1CN(C(=O)CC#N)[C@]12CCN(c1ncnc3[nH]ccc13)C2
absolute bioavailability (human, male): 75 to 100%

Clc1cc(Cl)cc([C@H]2COC[C@@H](C3CCCCC3)N2)c1
solubility (shake-flask, LC-HRMS; aqueous buffer; 16 h, pH 6.8): < 4 µM

CCO[C@H]1CCN(Cc2c(OC)cc(C)c3[nH]ccc23)[C@H](c2ccc(C(=O)O)cc2)C1
total Tmax (healthy volunteers, plasma; oral, 200 mg single dose, median): 2.5 h

O=C(Nc1ccc(OC(F)(F)Cl)cc1)c1cnc(N2CC[C@@H](O)C2)c(-c2ccn[nH]2)c1
patients with event (item: Amylase increase, any grade; human patients, dose-finding study; oral, sample E of sample B patients): 33.3%

CCn1cc(C(=O)N2CCOCC2)c(=O)c2cc(NC3Cc4ccccc4C3)cnc21
AUC(0-inf) (human, fed; oral suspension, 300 mg single dose, arithmetic mean): 13700 ng·h/mL

N#Cc1ccc2c(c1)[C@H]1CCCN(C(=O)c3ccc4[nH]cnc4c3)[C@H]1C2
ACTH level change (human; 360 mg, day 7; reference: baseline): 1.9 pmol/L

NC1(C(=O)N[C@@H](CCO)c2ccc(Cl)cc2)CCN(c2nc[nH]c3nccc2-3)CC1
decreased appetite incidence (human mCRPC patients; oral, twice daily, 4/7 days, any grade, treatment-related, together with: enzalutamide 160 mg daily): 53.3%

N#Cc1ccc([C@H]2COC[C@@H](c3ccc(CN4CCOCC4)cc3)N2)cc1
solubility (shake-flask, LC-HRMS; aqueous buffer; 16 h, pH 6.8): > 750 µM

C=CCN1CC(=O)N2[C@@H](Cc3ccc(O)cc3F)C(=O)N(Cc3cccc(N4CC(N5CCN(CC)CC5)C4)n3)C[C@@H]2N1C(=O)NCc1ccccc1
treatment-related ALT increased (advanced solid tumour patients; oral, 160 mg twice daily, grade ≥3, dose-escalation): 0%

CCc1cc(C(=O)NC)c2nccc(N3CCc4c(cc(Cn5ccnc5)cc4-c4cn(C)nc4C(F)(F)F)C3=O)c2c1
MRT(0-inf) (Sprague-Dawley rats, male, bile duct-cannulated, plasma; oral, 50 mg/kg): 3.4 h

NC(=O)N1c2ccccc2C=Cc2ccccc21
adverse events incidence (item: dry mouth; human male; oral, dose not given, AEs, treatment-related, on drug, CTCAE): 0%

O=C(Nc1nc2cccc(-c3ccc(CN4CCS(=O)(=O)CC4)cc3)n2n1)C1CC1
treatment-emergent adverse events (item: ankle fracture; human rheumatoid arthritis patients; oral, 150 mg once daily, 4 weeks, regardless of relatedness): 0%

Cc1ccc([C@@H]2O[C@H](CO)[C@@H](O)[C@H](O)[C@H]2O)cc1Cc1ccc(-c2ccc(F)cc2)s1
urinary sodium excretion change (Japanese type 2 diabetes patients; 200 mg, day 4, 24 h urine collection; reference: baseline): -0.29 mEq

[18F]c1ccc(-c2ccc3c(c2)[nH]c2ccncc23)cn1
SUV (ex vivo biodistribution; APP/PS1 mouse, AD model, liver; intravenous, 30 min): 2.59 ± 1.28

Cc1c([C@H]2COC[C@@H](c3ccc(C(C)(C)C)cc3)N2)cnn1-c1ccccc1
solubility (shake-flask, LC-HRMS; aqueous buffer; 16 h, pH 6.8): < 4 µM

CN1CCC(CNc2ccc3ncc(-c4cccc(OC(F)(F)F)c4)n3n2)CC1
lowest toxic concentration (thrombosis risk signature, BioMAP Diversity PLUS; primary human cell cocultures): ≥ 1.1 µM

CN1CCC[C@H](CN2c3ccccc3Sc3ccccc32)C1.Cl
AUC(0-t) (ICR mouse female fasted, heart; oral, 16 mg/kg): 2210 ng·h/mL

C[C@@H](Oc1ccc(S(C)(=O)=O)cc1C(=O)N1C[C@@H]2C[C@]2(c2cc(C(F)(F)F)on2)C1)C(F)(F)F
linearity index (healthy young humans, plasma; oral, 10 mg once daily; reference: AUCtau,ss over AUC(0-inf)): 1.02

COc1ccc2c(c1)CN(C(=O)CCN1CCC(Cc3ccccc3)CC1)CC[S@@+]2[O-]
QRS duration (telemetry; conscious male beagle dogs; intravenous, 4 mg/kg, 2 h): 34 ± 10 ms

COc1cc2nccc(Oc3ccc(NC(=O)c4cc5c(n(-c6ccccc6)c4=O)CCCC5=O)nc3)c2cc1OC
grade ≥3 Leucocytosis patients (relapsed or refractory AML; oral, 10 mg once daily): 14.3%

CN1CCN(c2cccc3c2CCN(C(=O)/C=C/c2c(-n4cnnn4)ccc(Cl)c2F)[C@@H]3C(=O)Nc2ccc(C(=O)O)cc2)C(=O)C1
discontinuations due to adverse events (healthy human subjects; intravenous infusion, 1.5 mg/h, 2 h): 0%

COc1cccc(-c2n[nH]c(SCc3ccccn3)n2)c1OC
Cmax (Sprague-Dawley rat, female, plasma; oral gavage, 100 mg/kg): 98900 ng/mL

CC(C)Cc1ccc(C(C)C(=O)O)cc1 (centres unmarked)
brain concentration (human; 600 mg, estimated from rat brain/serum ratio): 1000 to 3000 nM

CC1(C)CCC(CN2CCN(c3ccc(C(=O)NS(=O)(=O)c4ccc(NCC5CCOCC5)c([N+](=O)[O-])c4)c(Oc4cnc5[nH]ccc5c4)c3)CC2)=C(c2ccc(Cl)cc2)C1
lowest mean absolute neutrophil count (chronic lymphocytic leukaemia patients; dose not given, during treatment): 1600 ± 1300 cells/µL

Cc1cc([C@H]2C[C@H]3[C@@H](CF)SC(N)=N[C@@]3(c3ccc(F)cc3F)CO2)on1
CSF concentration (129/SVE wild-type mouse, male; subcutaneous, 30 mg/kg, 1 h): 467 nM

CC(C)(C(=O)N1CCOc2c(C#N)cncc2C1)C(F)F
subjects with myalgia TEAE (human, both sexes; oral, 40 mg single dose): 16.7%

CC[C@H](C)C(=O)N1CCC(NC(=O)Nc2ccc(OC(F)(F)F)c(F)c2)CC1
equilibrium solubility (Miglyol 810): 2000 µg/mL

CCc1ccc(C(=O)Oc2ccc(C#N)c(F)c2)cc1
placental accumulation (Sprague-Dawley rat, female, placenta; 5000 ng/mL in perfusate, 50 (unit not given), high dose, mixture of 21 LCMs): 36.3 ± 36.3 ng/g

Cc1cc(Nc2ncnc3ccc(NC4=NC(C)(C)CO4)cc23)ccc1Oc1ccn2ncnc2c1
drug-related adverse events (item: Dizziness; healthy volunteers; oral, dose not given, grade 1-2): 7.7%

CCCOc1ccc(-c2ccc(C#N)cc2)cc1
placental accumulation (Sprague-Dawley rat, female, placenta; 1000 ng/mL in perfusate, 50 (unit not given), middle dose, mixture of 21 LCMs): 164 ± 182 ng/g

CNCCOC12CC3(C)CC(C)(CC(Cn4ncc(-c5ccc(N6CCc7cccc(C(=O)Nc8nc9ccccc9s8)c7C6)nc5C(=O)O)c4C)(C3)C1)C2
QRS duration change (beagle dog, male, anaesthetised; intravenous bolus, 0.03 mg/kg, 105 min; reference: baseline): -2 ms

O=C(CSc1nnc(-c2ccncc2)o1)Nc1ccc(F)cc1
solubility (aqueous buffer; pH 7.4): 53.2 µg/mL

C=CC(=O)N1CCC(Oc2cc3c(Nc4ccc(Cl)c(Cl)c4F)ncnc3cc2OC)CC1
MRT(0-inf) (Sprague-Dawley rat, male, plasma; oral, 2 mg/kg, 1 weeks pretreatment, together with: Schisandrin B 20 mg/kg daily pretreatment): 4.56 ± 0.54 h

COC(=O)c1ccccc1-c1c2ccc(=N)cc-2oc2c1ccc1cccc(O)c12.Cl
Stokes shift (12.5 mM aqueous NaOH; pH 12.1, 10% DMSO): 149 nm

Cn1cnc2ccc(Nc3c(F)ccc(NS(=O)(=O)N4CC(F)C4)c3Cl)c(Cl)c2c1=O
patients with fatigue (item: fatigue grade 1-2; human patients; dose not given, monotherapy trial; reference: patients): 8%

O=C(Nc1ccc(OC(F)(F)F)cc1)N[C@H]1CC[C@H](Oc2ccc(C(=O)O)cc2)CC1
solubility (deionised water; 2 min, pH 6.6, 37 °C, non-sink dissolution): 0.35 ± 0.106 µg/mL

O=C(Cc1ccc(OC(F)(F)F)cc1)Nc1cc(C2CC2)[nH]n1
solubility (aqueous buffer; pH 7.4): < 3.49 µg/mL

COc1ncc(-c2nc3c(n2C(C)C)[C@H](c2ccc(Cl)cc2)N(c2cc(Cl)cn(C)c2=O)C3=O)c(OC)n1
AUC(0-last) (LC-MS/MS; human, plasma; oral, 15 mg, cycle 1 day 8, low-dose arm): 783 ng·h/mL

CCOC(=O)N1C[C@@H](c2cccnc2)N[C@@H](c2cccnc2)C1
solubility (shake-flask, LC-HRMS; aqueous buffer; 16 h, pH 6.8): > 750 µM

O=c1[nH]c(=O)n([C@H]2C[C@H](O)[C@@H](CO)O2)cc1CCCCC[18F]
biodistribution (male CD-1 nu/nu mice, RG2 tumour, lung; intravenous, dose not given, 2 h): 0.19 ± 0.03 %ID/g

Cn1ncnc1[C@H]1c2n[nH]c(=O)c3cc(F)cc(c23)N[C@@H]1c1ccc(F)cc1
AUCτ (human patients, plasma; oral, 600 µg/m2/day, day 5): 200 ± 101 ng·h/mL

CCOC(=O)N1C[C@@H](c2cnn(C)c2)N[C@@H](c2cccc(Br)c2)C1
solubility (shake-flask, LC-HRMS; aqueous buffer; 16 h, pH 6.8): > 750 µM

CC(C)NCCCC[C@@H]1NC(=O)[C@H](Cc2ccc(O)cc2)NC(=O)[C@H](Cc2ccccc2)NC(=O)CC[C@H](C(=O)N[C@@H](CCCCNC(C)C)C(=O)N[C@@H](CCCCNC(=O)[C@H](CCC(=O)O)NC(=O)[C@H](CCC(=O)O)NC(=O)[C@H](CCC(=O)O)NC(=O)CN2CCN(CC(=O)O)CCN(CC(=O)O)CCN(CC(=O)O)CC2)C(N)=O)NC(=O)CNC(=O)[C@H](Cc2ccc3ccccc3c2)NC(=O)[C@@H](CCCNC(=N)N)NC1=O [gallium-68 labelled]
tissue uptake (mouse with PC-3 xenograft, adrenals; intravenous, 1 h): 0.32 %ID/g

CCOC(=O)N1C[C@@H](c2ccc(C(F)(F)F)cc2)N[C@@H](c2ccc(N3CCCC3)cc2)C1
solubility (shake-flask, LC-HRMS; aqueous buffer; 16 h, pH 6.8): < 4 µM

C=CC(=O)N1CCC[C@@H](n2c(=O)n(-c3ccc(Oc4ccccc4)cc3)c3c(N)nccc32)C1
Cmax fed/fasted ratio (human; oral, 60 mg; reference: fed over fasted): 1.17

COc1ccc(C(=O)CSc2nnc(-c3ccc(OC)c(OC)c3)n2-c2ccccc2)cc1
solubility (aqueous buffer; pH 7.4): < 4.95 µg/mL

COC(=O)c1ccc([C@H]2COC[C@@H](c3cnc(-c4ccccc4)nc3)N2)cc1
solubility (shake-flask, LC-HRMS; aqueous buffer; 16 h, pH 6.8): < 4 µM

COCCOc1cnc2ccn([C@H](C)c3nnc4c(F)cc(-c5cnn(C)c5)cn34)c(=O)c2c1
Ctrough (cancer patients, plasma; oral, 200 mg once daily, day 1): 416 ng/mL

O=c1[nH]c(=O)n([C@H]2C[C@H](O)[C@@H](CO)O2)cc1CCCC[18F]
biodistribution (male CD-1 nu/nu mice, RG2 tumour, bone; intravenous, dose not given, 2 h): 0.62 ± 0.1 %ID/g

CCOC(=O)N1C[C@@H](c2ccc(Cl)cc2)N[C@H](c2cc(Cl)cc(Cl)c2)C1
solubility (shake-flask, LC-HRMS; aqueous buffer; 16 h, pH 6.8): < 4 µM

C[C@H](CCC(=O)NCCS(=O)(=O)O)[C@H]1CC[C@H]2[C@@H]3CC[C@@H]4C[C@H](O)CC[C@]4(C)[C@H]3C[C@H](O)[C@]12C
Cmin (human, plasma; control): 6.85 ± 1.76 nM

O=C(OC(C(F)(F)F)C(F)(F)F)N1CCN(Cc2cccc(Oc3ccccc3)c2)CC1
k2 (PET blocking study; rhesus monkey, brain STR; 0.1 mg/kg, compound pretreatment, together with: [18F]T-401 tracer): 0.065 min⁻¹

CCOc1c([C@H](C)n2nc(C)c3c(N)ncnc32)cc(Cl)c(F)c1[C@@H]1CNC(=O)C1
lowest LSM ΔQTcF (previously treated B-cell malignancy patients; oral, 5 to 45 mg once daily, across doses and timepoints): -6.83 ms

O=C(O)CCC(=O)O.[2H]C([2H])([2H])Oc1cc(C)c2[nH]ccc2c1CN1CC[C@@H](C2CC2)C[C@H]1c1ccc(C(=O)O)cc1
subjects with hyponatraemia (multiple ascending dose; healthy Chinese subjects; 50 mg twice daily): 0%

COc1ccc([C@@H](O)c2cc(-c3ncnc4cc(N5CCOCC5)ccc34)c(F)cc2Cl)nn1
rectal haemorrhage TEAE (locally advanced rectal cancer; oral, 100 mg, together with: capecitabine and radiotherapy): 0%

O=C(Cn1nc(-c2cccc([N+](=O)[O-])c2)c2ccccc2c1=O)NCC1CCCO1 (centres unmarked)
solubility (aqueous buffer; pH 7.4): 8.03 µg/mL

Cc1nc(-c2ccc(OCC(C)C)c(C#N)c2)sc1C(=O)O
body weight (KM mouse, chronic hyperuricaemia model; dose not given, day 3): 25.5 g and 29.6 g and 28 g and 28.1 g and 27.8 g and 26.1 g

Some of these lines once more:
O=C(O)CCC(=O)O.[2H]C([2H])([2H])Oc1cc(C)c2[nH]ccc2c1CN1CC[C@@H](C2CC2)C[C@H]1c1ccc(C(=O)O)cc1
subjects with hyponatraemia (multiple ascending dose; healthy Chinese subjects; 50 mg twice daily): 0%

CCCOc1ccc(-c2ccc(C#N)cc2)cc1
placental accumulation (Sprague-Dawley rat, female, placenta; 1000 ng/mL in perfusate, 50 (unit not given), middle dose, mixture of 21 LCMs): 164 ± 182 ng/g

COc1ccc(C(=O)CSc2nnc(-c3ccc(OC)c(OC)c3)n2-c2ccccc2)cc1
solubility (aqueous buffer; pH 7.4): < 4.95 µg/mL

Cn1cnc2ccc(Nc3c(F)ccc(NS(=O)(=O)N4CC(F)C4)c3Cl)c(Cl)c2c1=O
patients with fatigue (item: fatigue grade 1-2; human patients; dose not given, monotherapy trial; reference: patients): 8%

Cc1c([C@H]2COC[C@@H](c3ccc(C(C)(C)C)cc3)N2)cnn1-c1ccccc1
solubility (shake-flask, LC-HRMS; aqueous buffer; 16 h, pH 6.8): < 4 µM
